Assay results pooled from the literature.
Each line is one published result; not all experiments were run side by side.

Compound	cell line	assay	setting	IC50
CCOc1cc([C@@H](CS(C)(=O)=O)N2C(=O)c3cccc(NC(C)=O)c3C2=O)ccc1OC	PBMC	cytokine release, MSD, refers to: IL-2	24 h, with: anti-CD3ε/anti-CD28	0.029 µM
CC(=O)[C@]1(O)Cc2c(O)c3c(c(O)c2[C@@H](O[C@H]2C[C@H](N)[C@H](O)[C@H](C)O2)C1)C(=O)c1ccccc1C3=O	primary human intestinal proliferative cells	total cell number (DAPI)	48 h	0.547 µM
Cc1c(C)c2c(c(C)c1O)CCC(C)(COc1ccc(CC3SC(=O)NC3=O)cc1)O2 (stereo not shown)	hepatocytes, iPSC-derived, line W3	cell viability, RealTime-Glo MT	72 h, differentiation day 23	140 µM
C=CC(=O)N1CCC([C@@H]2CCNc3c(C(N)=O)c(-c4ccc(Oc5ccccc5)cc4)nn32)CC1	TMD8 wild-type	calcium flux, FLIPR	4 h preincubation, with: anti-IgM	0.0015 µM
Cc1c(C(=O)O)ccc2c3n(nc12)[C@@H]1[C@H](C3)N(CC2CC2)[C@@]2(C(=O)Nc3cc(Cl)ccc32)[C@H]1c1cccc(Cl)c1F	SNU-719 (MDM2 non-amplified)	cell proliferation, alamarBlue	120 h	0.013 µM
CC(=O)c1c(O)c(C)c(O)c2c1OC1=CC(=O)C(C(C)=O)C(=O)C12C (single isomer, unassigned; (+))	hepatocytes, iPSC-derived, line W3	cell viability	72 h	43 µM
CCCCN1C[C@H](O)[C@@H](O)[C@@H](O)[C@H]1CO	sample H patient fibroblasts	Gb3 level lowering, LC-MS/MS, refers to: Gb3 d18:1/20:0	216 h	17.3 µM
O=C(O)COCC(=O)O	hepatocytes, iPSC-derived, line L1	cell viability, RealTime-Glo MT	48 h, differentiation day 23	7110 µM
C=CC(=O)Nc1cccc(Oc2nc(Nc3ccc(N4CCN(C)CC4)cc3)nc3ccoc23)c1	TMD8 wild-type	calcium flux, FLIPR	1 h preincubation, with: anti-IgM	0.0506 µM
O=C(Nc1c(Cl)cncc1Cl)c1ccc(OC(F)F)c(OCC2CC2)c1	PBMC	cytokine release, MSD, refers to: IL-1β	24 h, with: anti-CD3ε/anti-CD28	0.0034 µM

Some of these lines once more:
Compound	cell line	assay	setting	IC50
Cc1c(C)c2c(c(C)c1O)CCC(C)(COc1ccc(CC3SC(=O)NC3=O)cc1)O2 (stereo not shown)	hepatocytes, iPSC-derived, line W3	cell viability, RealTime-Glo MT	72 h, differentiation day 23	140 µM
